Published values gathered from unrelated publications.
Each numbered part is a random draw from the data of one study; scales do not carry over between parts. Positions count from the first letter of the parent shown.

Series 1 — method: protein-binding microarray; molecule type: double-stranded DNA, one strand shown; sample: in vitro; concentration: 2200 nM top; setting: 60-bp whole probe; added: salmon DNA 0.4 mg/ml; baseline: random background probes; direction: higher = stronger binding; endpoint: fitted relative affinity; shared flanks, not repeated: GCCTAGCAC … GTCTTGATTCGCTTGACGCTGCTG
Target: Interferon regulatory factor 7, full length, phosphomimetic (IRF7, Homo sapiens, UniProt Q92985, residues 1-503, S471D/S472D/S475D/S476D/S477D/S483D/S484D/S487D)
Chain of UniProt Q92985 (whole entry, unmodified, looked up): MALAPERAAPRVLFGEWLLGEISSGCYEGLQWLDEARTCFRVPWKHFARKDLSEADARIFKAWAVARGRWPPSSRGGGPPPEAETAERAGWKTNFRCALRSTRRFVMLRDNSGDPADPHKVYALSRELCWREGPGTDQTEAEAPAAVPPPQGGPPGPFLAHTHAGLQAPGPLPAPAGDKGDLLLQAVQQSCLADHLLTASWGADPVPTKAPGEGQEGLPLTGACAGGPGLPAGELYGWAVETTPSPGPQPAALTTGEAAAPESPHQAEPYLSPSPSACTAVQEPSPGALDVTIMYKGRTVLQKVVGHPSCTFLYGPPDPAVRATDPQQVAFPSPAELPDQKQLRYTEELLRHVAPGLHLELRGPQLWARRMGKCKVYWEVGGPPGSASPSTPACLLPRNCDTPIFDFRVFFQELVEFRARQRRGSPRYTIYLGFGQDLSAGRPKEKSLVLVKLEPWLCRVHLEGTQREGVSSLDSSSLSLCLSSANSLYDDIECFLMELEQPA
TTAGGTCTCGGTCTCGGTAAGTGCTAG: 0.622 z-score
GACGGACTGGACTATCCGGACGTGCTA: -0.53 z-score
TCACCTCTGTCATTTTCACTGTGCTAG: 2.72 z-score
GACGATCTCCTTTTCCTGACGTGCTAG: 1.76 z-score
TCATGTTTTGTTTTTCAACTGTGCTAG: 3.3 z-score
TCATTTTTATTTATAAAACTGTGCTAG: 0.643 z-score
GACGGTATCGGTTTCGGGACGTGCTAG: 3.92 z-score
GTAGTAATCTTAAGGCTGTCGTGCTAG: -0.221 z-score
TCATTTTTCTGATTGAAACTGTGCTAG: 3.27 z-score
TCACTCCTCTAGGTTCTCACTGTGCTA: 1.73 z-score
GACGGTTTCCATCTCCTGACGTGCTAG: 3.69 z-score
GACGGAATCCTTCTCCTGACGTGCTAG: 0.678 z-score
TTAGGTTTCGACTTTCGGATAGTGCTA: 8.02 z-score
ATTACTTTAGGTTCCCAGGTGTGCTAG: 1.65 z-score
TTCCTTATTGCTTCCTCTTTGTGCTAG: 3.78 z-score
TTAGGTAGCGGACTGGGTTAGTGCTAG: -0.764 z-score
TCAATTCTCTTTTCACTACTGTGCTAG: 1.86 z-score
TTAGGTATCGACACTGGATTAGTGCTA: 0.0303 z-score
TCATCTCACGCATCTGAAACTGTGCTA: 1.04 z-score

Series 2 — target: NFE2L2, bZIP domain (human); method: DHFR protein complementation; sample: yeast; baseline: wild-type JUN-FOS pair; direction: higher = stronger binding; endpoint: binding fitness
Setting: single substitutions, most at no-binding floor
Parent: JUN, bZIP domain (human); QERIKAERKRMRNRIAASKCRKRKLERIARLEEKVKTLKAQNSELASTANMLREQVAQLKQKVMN; partner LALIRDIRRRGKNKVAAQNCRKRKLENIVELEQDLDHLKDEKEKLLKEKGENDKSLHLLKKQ
R30F: -1.46 natural log
R53T: -1.57 natural log
E33A: -1.41 natural log
A29E: -1.52 natural log
L38R: -1.45 natural log
E44N: -1.53 natural log
A57W: -1.51 natural log
S43F: -1.42 natural log
E33G: -1.39 natural log
A57M: -1.55 natural log
A49M: -1.55 natural log
Q41A: -1.5 natural log
K39Q: -1.37 natural log
E33V: -1.45 natural log
T48Y: -1.16 natural log
L45R: -1.49 natural log
L38M: -1.19 natural log

Series 3 — method: RNA Bind-n-Seq; molecule type: RNA; sample: in vitro; concentration: 365 nM; baseline: no-protein control; direction: higher = stronger binding; endpoint: RBNS enrichment (R)
Target: RNA binding protein fox-1 homolog 2, RRM domain, GST-SBP tag (RBFOX2, Homo sapiens, UniProt O43251-10, residues 100-194)
Setting: natural RNA segment, single round, ends assumed
Shared flanks, not repeated: GGGAGUUCUACAGUCCGACGAUC … UGGAAUUCUCGGGUGCCAA
Construct (chain): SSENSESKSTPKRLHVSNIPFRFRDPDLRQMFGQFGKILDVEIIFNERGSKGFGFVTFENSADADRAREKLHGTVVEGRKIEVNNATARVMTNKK
GUAGAGCUGAGCCUCUCCACUUCAGGGUGUGGCAUCAUGGCUCAGAUGUCAUUUUGAGCUAAAACCCAGUUAGAUGCAGUAAAAAACCACUUUGAGAGAUGGCUUGUGUU: 0.48
GAGGGUUCCCGGCCUGCAGGUGCUCUUUCCUCUUGGUCCCAAGCAUCUGUGCAGGGUCGUGGGAGCCACACUGAGAGACUUGUGUGGGCCAGACAAGCUUCAUUCUGAUG: 0.337
UUAUAGCCAGAGAAAUCACCUUAAUGCAGUCUCUUUAGUUGUCUGCUGAAGCUGUAGUUAUUAUGGGCCACUUACAUGAGGCUGAGAAGUACGUGCCGGAGCUCACACAC: 0.415
UUGGAGACUGGGAUUAGAGCCUUUGGAGGUCAAAGCAAAUUAAGAUUUUUAUUUAAGAAUAAAAGAGUACUUUGAUCAUGAGACAUAGGUAUCUUGUCCCUCUCACUAAA: 0.461
GGCCCAUAGGAGCAGUCCCGCUGCACAAUGGUAGGCAUAGGCCAUGGCACUGGACUGCCUCUAAGGACUGCUAAAAAGAAUAUUUUUUUGUGGUGUCAGAACUGGAAAAA: 0.451
GGUGGCCGUCAUUGGGAAAGCAUCGAGAAAGAGGCGAGCUUUGCAUCUGUCCCUUGACAGGGAAGGUAGGCUUCUGGCUAGCAGAGCAGGUGACACAAACCAGUUUAUUG: 0.295
UCUCAUGCCAGCAUGCUUUCAUUUGUCAGUUGUUGUGACUGAGAGAUAAUGAAUGACACCUGAAAUGCAUAUGGUAUUUUUGGGAGAGUUAAGGUAUAAUUUGAAGGUUG: 1.6
CAGUCAUUUUUAAAGAAAUUCUAUACUUCAUAUACUGUAUAAUGAUUAAAAUAAUAAACCAUUUCAGAAAUAACAGCUUAUUCUUGUUUGAAAAAUGAAAACAUACAUUG: 0.484

Series 4 — method: DHFR PCA, deep sequencing; sample: yeast; added: (+)-ABA 0.0091 µM; baseline: wild-type fitted maximum; direction: higher = stronger binding; endpoint: relative binding score
Target: ABI1, truncated, D143A, DHFR fusion (Arabidopsis thaliana)
Setting: methotrexate growth selection, single substitutions
Parent: PYL1, truncated, DHFR fusion (Arabidopsis thaliana); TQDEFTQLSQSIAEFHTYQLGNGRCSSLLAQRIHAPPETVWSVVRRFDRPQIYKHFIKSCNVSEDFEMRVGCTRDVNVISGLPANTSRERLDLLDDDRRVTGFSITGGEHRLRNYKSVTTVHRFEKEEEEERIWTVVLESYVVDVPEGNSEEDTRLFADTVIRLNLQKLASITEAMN; partner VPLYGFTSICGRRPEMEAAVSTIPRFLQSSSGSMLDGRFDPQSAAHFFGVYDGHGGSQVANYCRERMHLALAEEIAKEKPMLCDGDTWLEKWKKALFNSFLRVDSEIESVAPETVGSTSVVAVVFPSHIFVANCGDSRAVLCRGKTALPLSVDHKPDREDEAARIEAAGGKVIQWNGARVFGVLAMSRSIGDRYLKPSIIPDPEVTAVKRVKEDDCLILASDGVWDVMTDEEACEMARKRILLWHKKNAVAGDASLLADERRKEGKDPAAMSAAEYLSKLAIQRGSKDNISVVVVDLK
W134I: 17.5%
Q7R: 11.9%
D153Q: 1.91%
V100S: -0.574%
R155L: 2.86%
S59F: 5.01%
I52A: 33.3%
F47T: -0.974%
R99E: -5.98%
T86Y: 29.6%
S26T: 30.4%
H122G: -0.69%
Y18C: -0.341%
E64A: 30.9%
T17C: 1.55%
G107A: 19%
A13V: 6.71%
R32S: 6.67%

Series 5 — target: CCNB2, cyclin fold, Cln2 fusion (human); method: yeast growth competition, sequencing; sample: yeast; setting: weak parent motif; baseline: not given; direction: higher = stronger binding; endpoint: normalised enrichment score
Parent: INSM1 docking peptide (human); PKAIRKLHFEDEV; partner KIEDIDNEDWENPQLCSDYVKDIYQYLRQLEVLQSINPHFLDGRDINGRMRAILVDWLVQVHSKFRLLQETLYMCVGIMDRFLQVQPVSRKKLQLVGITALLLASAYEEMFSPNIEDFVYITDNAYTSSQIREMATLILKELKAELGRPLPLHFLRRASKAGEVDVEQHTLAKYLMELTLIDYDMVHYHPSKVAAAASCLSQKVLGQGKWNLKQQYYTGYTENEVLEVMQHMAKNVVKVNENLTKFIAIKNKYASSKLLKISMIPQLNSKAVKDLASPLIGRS
F9K: -0.182
F9T: 0.0543
R5G: -0.00214
D11R: 0.378
D11P: 0.232
E10P: 0.417
E10Y: -0.0925
K2P: 0.00298
F9A: -0.255
E10W: 0.451
A3E: 0.553
F9G: -0.058
E12G: 0.167
A3Q: 0.0083
E12L: 0.525
I4H: -0.00686
L7I: 0.645
H8S: 0.315
D11E: 0.406
F9W: 0.895
H8V: 0.234
I4N: 0.208
E10I: 0.275
H8G: 0.227
D11L: 0.38

Some of these lines once more (series 4):
S26T: 30.4%
W134I: 17.5%
D153Q: 1.91%
G107A: 19%
F47T: -0.974%
S59F: 5.01%
V100S: -0.574%
